# Experimental data collected from several papers.
# Each numbered part is a random draw from the data of one study; scales do not carry over between parts.

# Series 1 — method: RNA Bind-n-Seq; form: RNA; matrix: in vitro; concentration: 365 nM; reference: no-protein control; reading: higher = stronger binding
# Target: RNA binding protein fox-1 homolog 2, RRM domain, GST-SBP tag (RBFOX2, Homo sapiens, UniProt O43251-10, residues 100-194)
# Setting: natural RNA segment, single round, ends assumed
# Constant ends, left off below: GGGAGUUCUACAGUCCGACGAUC … UGGAAUUCUCGGGUGCCAA
# Target sequence (chain): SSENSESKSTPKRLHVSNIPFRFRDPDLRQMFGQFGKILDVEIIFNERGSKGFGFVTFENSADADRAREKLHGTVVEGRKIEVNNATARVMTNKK
Oligonucleotide,RBNS enrichment (R)
UACGCCUUUCCAAUCUUUAUUGGAAGUCUCUCCCUGCCUACUUCCUAAUUUAUUCUUAUUUGACAGAGGGUAUGGAAGACUUGCAAUUUGAAAACUGGGGACCAGUUCCA,0.277
AAGCAAACCAGUUAAUCUCAGUGUAAUUUCAUUCAGCUUUUCAUGUGCUUUGUAUUCAAUCAGAAUAAGCUUAGUCAACCUGGCAGGUAAAUAUUGGUUCAAUUUUUGUU,0.516
CUCUACUCACUGAGCUAGGAUUAGGGAGGGUUAUUGCCCCAACCAUUGCAAUGGGAGGUGGAGGGACAGGCUCAGCCUCCUCAUUGUCUAAAUGAGGCCUAAAUGUGUGA,0.553
ACCUCCCCUGACACCCCAGUCCUGGUUGGCCCUUUCUCCUGCCUUGCCCUGAAGUCUUACCUUCUCCCAUUGCAUUCAAGGCCUAUAGCACAAAGUGCAUCUCAGAGAUG,0.66
UGGUAGACUGGAUCCUGACCAGAAGGAGGUCUGAUAUAAUAUCCAUCCAGACAAGAAAUCAACAUGCUAUCAAGAACCAGGUUGAAGCAAAACUGAAAGUGUGUGAUAUU,0.773
UUCUAAGUUGUGUUUAUUCCUGGAGUGACAUGCCACCCCGAAUGGCUCACUUUCACUGAGGAUGCUGUCCUCUGAUUUAGCUGCUGCCUCCAGCCUCUGGCUUGAGAACU,0.183
AUUCCCUUUUUAAAUGAGCUUUCAGGAAGUUGCUGAGAAAUGGGGUGGAAUAGGGAACUGUAAUGGCCACUGAAGCACGUGAGAGACCCUCGCAAAAUGAUGUGAAAGGA,0.459
GGCUACAAGCCCAGCGAUGAGCACAAGACCGACCUCAACCCCGACAACCUGCAGGGCGGCGACGACCUGGACCCCAACUACGUGCUGAGCUCGCGGGUGCGCACGGGCCG,0.402
CCACCUGCGUCCUCGUCAAGUGCCCGAGCUCGCCGCCGUGUGUGCUGCGCUGAGUGAGUUAUGAGGUGCCUUUCCCGGAACCCUCCUCUCGCCUGGACCCAAGAGAGGCG,0.41
UUGAGUGAUGGUGUUUCAAAUCCUGUAGUCCUAUGGUGGCUUUCCUUGCCUGUUACUUUAGAGAUCUAGCCACUAGGCAGUCGCUUCUAAGAAAAUUAUUGAUGAAGUGG,0.75
GACACUAUUAAAUAAGCAGUAAUUCCUUGAAAGGAGUACCUGUACCAAGUCCUAGGAAAUAAUGCUUGUAAUAAACUUAACUGUGUUACAUCAGUAGGUAAAAUACAUAA,0.25
UCCAGUGUCAAACACCGCCCAGGCUUUCCAGCUGACCUCUGUUAUCUUGAGAGCUGAGGCUAGGUCCUCCCAGCUACUGUUAGGCAUUGAGGUACUAAAACUGCAGGUGG,0.313

# Series 2 — method: RNA Bind-n-Seq; form: RNA; matrix: in vitro; concentration: 200 nM; setting: whole 134-nt RNA, ends assumed; together with: 150 mM KCl; reference: input library; reading: higher = stronger binding
# Target: Fragile X messenger ribonucleoprotein 1, C-terminal low-complexity region (Fmr1, Mus musculus, UniProt P35922)
# Constant ends, left off below: GGGAGUUCUACAGUCCGACGAUC … UGGAAUUCUCGGGUGUCAAGG
Oligonucleotide,log2 enrichment
CACAGACAACACGCACCCACACAGACACAGAGGGAAGGGGUUGGGAUGGGGAAAGGGUGCACAGCAGGGCGGGGUAGGACCCCAGCCCCU,1.16
AGUCCUGUGCUACACAUCGUAUGUACCGAAUCGGUUUUUGGAAAAAAAGGAAAAAGGAAAGUAUUAUGUUACGCCGUUCGGAUCUGCACU,-1.21
UCCUGUGCUACACAUCGUAUGUACCGAAUCGGAAAAAAGGGGAAAAAAGGAAAAAAGGGAAAGUAUUAUGUUACGCCGUUCGGAUCUGCA,-0.423
UCAGGAAGUAAAAACAAAUGGAAAUGCUUCGGAUAGUGGCAGGGGUGGGGGUUGCUAAGGAAAGGGUGGGAUGGGAGUGGGUAAAGAGUU,0.224
UUUCAAAGCCAAAGGGCCUUGUGACGCCCCUCUUGCCCACCUCCCUCCACACCGUGUCCUCCCCUAUAUGACAAUCAAUGUGACCUCUCU,0.135
GCAGGAAGUAAAAACAAAUGGAAAUGCUUCGGAUAGUGGCCGGGGUGGGGGUUGCUAAGGAAAGGGUGGGAUGGGAGUGGGUAAAGAGUU,0.175
GCAGGAAGUAAAAACAAAUGGAAAUGCUUCGGAUAGUGGCAGGGGUGGCGGUUGCUAAGGAAAGGGUGGGAUGGGAGUGGGUAAAGAGUU,0.487
UCCUGUGCUACACAUCGUAUGUACCGAAUCGGGGUUUUUGGGGUUUUUGGGGUUUUUGGAAAGUAUUAUGUUACGCCGUUCGGAUCUGCA,0.423
GUCCUGUGCUACACAUCGUAUGUACCGAAUCGGAAAAAAGGGAAAAAAGGAAAAAAGGGAAAGUAUUAUGUUACGCCGUUCGGAUCUGCA,-0.851
CCUCAAGUCCUGUGCUACACAUCGUAUGUACCGAAUCGGAGGAAAGGAAAGGAAAGUAUUAUGUUACGCCGUUCGGAUCUGCACUUCCAG,0.108
AGUCCUGUGCUACACAUCGUAUGUACCGAAUCGGGGAGGGGAGGGGAAAAAAAGGGGAAAGUAUUAUGUUACGCCGUUCGGAUCUGCACU,0.714
UGGGAGGUGGAUUUUGUUUAUUUUUUUAGCGCAUUUCCAGGGGUGGGAAUUUUUUUUUAAUAUGUGUCAUGAAUAAAGUUGUUUUUGAAA,0.352
ACCAUGCAGGUGGGCAUCUUUGGGAAGUGGGGCAAGGGGGGGAUAGGGAGGGGGGGAACACUUUGGGAACAGGUGGUCCCAGGUCGUUUC,1.06
UAACUUUAGAGGAGGAUCUGAUGGAUAUGGCAGUGGACGUGGAUUUGGGGAAGGCUAUAAUGGGUAUGGAGGAGGACCUGGAGGUGGCAA,0.103

# Series 3 — method: protein-binding microarray; form: double-stranded DNA, one strand shown; matrix: in vitro; concentration: 0.8 µM; setting: whole 60-bp probe, no competitor; reading: higher = stronger binding; constant ends, left off below: … GTCTTGATTCGCTTGACGCTGCTG
# Target: Centromere-binding protein 1, full length, N-terminal tag (CBF1, Saccharomyces cerevisiae, UniProt P17106, residues 1-351)
# UniProt P17106, sequence (whole entry, looked up): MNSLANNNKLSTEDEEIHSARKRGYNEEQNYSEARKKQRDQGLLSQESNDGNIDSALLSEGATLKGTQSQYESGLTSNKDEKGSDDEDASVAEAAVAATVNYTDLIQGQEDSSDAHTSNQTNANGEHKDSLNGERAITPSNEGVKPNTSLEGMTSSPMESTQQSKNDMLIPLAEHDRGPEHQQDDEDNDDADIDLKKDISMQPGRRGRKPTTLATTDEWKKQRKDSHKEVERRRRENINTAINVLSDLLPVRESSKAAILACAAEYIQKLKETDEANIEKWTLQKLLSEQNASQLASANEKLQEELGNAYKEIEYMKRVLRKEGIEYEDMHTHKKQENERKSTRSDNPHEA
Oligonucleotide,fluorescence intensity [a.u.]
CTAGCTCTGTCAAACCCCGTGGAAACGCAAACTTTC,586
GAACTACGAGGACGCGACGTGACTCAATTGGAATAG,783
GAATCTCGGTTGAGCAACGTGAAAAACCTTCCATAG,532
CCTAACTACTATAGGAAGCTGATATAGCTTCGTACA,488
GAATGCCATGGAGTTGTCGTGATCCAGTTAAATTAG,617
CTAATTTTGAAAACTCACTCACGTCTTCCTAGATTC,543
CTAAAAAGTGTCAATCACCTGGATGCATAAGGATTC,601
CTAATAAAAGCATATTACGTGGGGTCGTAGTAATTC,493
TGTACGAAGCTATGCTGCGTGGGTATAGTAGTTAGG,519
GAAGTTTATTATAATAATGTGATCGTTTCTTTCTAG,633
CTACTTTGGCACATGTTCGTGATACCTTCGTCTTTC,1160
GAATCGGGAGATTTTCAGGAGATTTTAAGGTTTTAG,496
GAATCAATCATTATGGTGGTGATGATCCGTTTTTAG,541
CTAGTAGAAGCTCTCCTCATGACTTTGGGCTATTTC,502
GAACTTGTTATCTTGGTGATGATCGCACAAGTATAG,552
CTATCAGGTAGATCTCAGCACGTGTGCATGCGCTTC,6120
CTACGGGCGGCTATGCACGTTTGAACAAGTATATTC,514
CCTAACTACTATAATCACGTTACATAGCTTCGTACA,1500
CTAACATTCAAAGAGTTCGTGACCAGTTATTGCTTC,1120
CTATATTATTTTCATCACCAAACTGTTGGAAGTTTC,525
CTAACTACTCGCCATCATGAGATTACGACATCTTTC,532
GAACATTGGCGAAAGGTGATGGTGTAAAGTAACTAG,503
GAACAGTTATACTATCACGTTGCACCTGGGGCCTAG,1250
GAAAACATGCTGGATAACGTGCATGATTCAATTTAG,770
GAACTACTGCCTTGGTCGGTCACCATTAAACTCTAG,526

# Series 4 — method: protein binding microarray; form: double-stranded DNA, one strand shown; matrix: in vitro; concentration: not given; reference: not given; reading: higher = stronger binding
# Target: Histone acetyltransferase KAT6A, winged helix 1, GST fusion (KAT6A, Homo sapiens, UniProt Q92794, residues 1-85)
# Setting: 8-mer, flanks averaged, mean of 2 arrays, mostly near background
# Construct (chain): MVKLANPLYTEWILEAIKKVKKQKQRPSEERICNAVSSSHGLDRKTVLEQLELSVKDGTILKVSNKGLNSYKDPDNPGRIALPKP
Oligonucleotide,E-score
GTACCGTA,0.265
CAGCCAAA,-0.195
CGGTCATA,0.148
CTTCACGC,0.162
AATTGTGC,-0.127
GCCGTGAC,0.357
ACGGATGG,0.117
ACATAGGA,-0.076
ATGACAGG,-0.168
AGCCTCGA,-0.168
GCTTTCAC,-0.0847
GAATGATA,-0.112
TCTAATCA,-0.131
AATGTTTC,0.0407
AACATCGG,0.1
AATTCCAC,-0.239
CGCTGGTC,0.243
CAAACGGG,0.269
CCCCTGGC,0.104
GCCTGGCA,-0.152
CATTGATC,-0.178
AAATAAAA,-0.0629
CGTGGGAG,0.0674
AGACGTAG,-0.207
CATCCGGC,0.157

# Series 5 — method: aptamer microarray, sandwich; form: DNA with 2'F-ANA; matrix: in vitro; concentration: 200 nM; together with: Cy3 exosite-II aptamer, 400 nM; reading: higher = stronger binding; oligonucleotide: GGTTGGTGTGGTTGG
# Target: Prothrombin, mature alpha-thrombin (F2, Homo sapiens, UniProt P00734)
# Setting: whole 15-mer aptamer, many near background
Modification,mean fluorescence intensity
2'F-ANA at 1 2 6 7 9 10 11 14 15,51.5 a.u.
2'F-ANA at 2 4 5 7 8 12 13,142 a.u.
2'F-ANA at 6 8 9 13,377 a.u.
2'F-ANA at 1 4 7 8 11,139 a.u.
2'F-ANA at 1 2 3 6 7 8 10 11 14,55.2 a.u.
2'F-ANA at 1 2 3 4 5 8 10 11 12 13 14 15,58.1 a.u.
2'F-ANA at 1 3 4 6 9 14 15,63.1 a.u.
2'F-ANA at 2 3 6 8 9 12 13 14,390 a.u.
2'F-ANA at 1 2 4 7 9 10 11 13,49.8 a.u.
2'F-ANA at 2 3 6 9 13 14,342 a.u.
2'F-ANA at 1 2 4 5 6 10 12 13 14 15,84.2 a.u.
2'F-ANA at 4 5 7 8 9 10 12 14,45 a.u.
2'F-ANA at 3 4 10 15,332 a.u.
2'F-ANA at 1 2 3 4 5 9 12 14 15,48.4 a.u.
2'F-ANA at 2 4 7 10 12 15,139 a.u.
2'F-ANA at 1 4 6 7 9 10 11 12 14 15,49.2 a.u.
2'F-ANA at 1 2 5 6 7 8 9 10 14 15,93.6 a.u.

# Some of these lines once more (series 4):
Oligonucleotide,E-score
CAAACGGG,0.269
TCTAATCA,-0.131
GCCGTGAC,0.357
AAATAAAA,-0.0629
AGACGTAG,-0.207
AATTCCAC,-0.239
AATGTTTC,0.0407
CATCCGGC,0.157
ACGGATGG,0.117
ATGACAGG,-0.168
CATTGATC,-0.178
AGCCTCGA,-0.168
CGCTGGTC,0.243
GCCTGGCA,-0.152
